Published values from different studies.
BRD4 BD2: Bromodomain-containing protein 4, BD2 (BRD4, Homo sapiens, UniProt O60885)
UCHL1: Ubiquitin carboxyl-terminal hydrolase isozyme L1 (UCHL1, Homo sapiens, UniProt P09936)
UniProt P09936, sequence (whole entry, looked up): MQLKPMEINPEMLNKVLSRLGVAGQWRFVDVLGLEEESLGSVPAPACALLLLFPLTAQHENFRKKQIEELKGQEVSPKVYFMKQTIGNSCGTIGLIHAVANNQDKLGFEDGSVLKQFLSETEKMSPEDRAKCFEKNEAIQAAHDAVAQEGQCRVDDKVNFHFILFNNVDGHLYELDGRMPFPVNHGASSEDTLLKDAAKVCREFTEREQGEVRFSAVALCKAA
BRD4 BD1: Bromodomain-containing protein 4, BD1 (BRD4, Homo sapiens, UniProt O60885)

`Cc1cc2c(cc1N1C(=O)c3cccc4c(N5CCN(CC6CC6)CC5)ccc(c34)C1=O)n(C)c(=O)n2C` has an IC50 of over 10.8 µM (BRD4 BD2; binding, inhibitor, HTRF; BD2 domain, H4 acetyl peptide).
`COc1ccccc1N=Nc1ccc(NC(=O)CCl)cc1C` gave a labelling of 10.1% (UCHL1; covalent, intact protein LC-MS; 12.5 µM).
`COc1cc(N2CCN(C)CC2)ccc1Nc1ncc2c(n1)N(C)c1ccccc1C(=O)N2C` has an IC50 of 0.888 µM (BRD4 BD1).
`CN(C)C(=O)c1cc2cnc(Nc3cc(C(F)(F)F)c(-c4cccc5c(=O)cc(N6CCOCC6)oc45)cn3)nc2n1C1CCCC1` has an IC50 of over 10 µM (BRD4 BD2; inhibitor).
With `Cc1[nH]c2ccccc2c1-c1csc(-c2c[nH]c3ccccc23)n1` the IC50 was 3.39 µM (BRD4 BD2; protein-DNA interaction, AlphaScreen; DNA-binding domain).
The labelling of `CN(c1ccc(C(=O)CCl)cc1)S(C)(=O)=O` is reported as 29.4% (UCHL1; covalent, intact protein LC-MS; 12.5 µM).
`COc1cc(N2CCN(C)CC2)ccc1Nc1ncc2c(n1)N(C)c1ccccc1C(=O)N2` gave an IC50 of over 10 µM (BRD4 BD1).
`CN(C)C(=O)c1cc2cnc(Nc3cc(C(=O)O)cc(-c4cccc5c(=O)cc(N6CCOCC6)oc45)c3)nc2n1C1CCCC1` gave an IC50 of over 10 µM (BRD4 BD2; inhibitor).
The IC50 of `CCOc1ccc(C(C)=O)cc1NC(=O)c1cc(NC(C)=O)cc(NC(=O)c2ccco2)c1` is reported as over 200 µM (BRD4 BD1; inhibitor).
`CCN(CC)CCCC(C)Nc1ccnc2cc(Cl)ccc12` (stereo not shown) has an IC50 of over 10 µM (BRD4 BD1; binding, AlphaScreen; added: tetra-acetylated H4 peptide).

A few entries again:
`CCN(CC)CCCC(C)Nc1ccnc2cc(Cl)ccc12` (stereo not shown) has an IC50 of over 10 µM (BRD4 BD1; binding, AlphaScreen; added: tetra-acetylated H4 peptide).
